{"data": "Assay results gathered from unrelated publications", "note": "A part holds a random share of what one study measured. Positions count from the first letter of the parent shown."}
{"data": "Set 1", "target": "RNA binding protein fox-1 homolog 2, RRM domain, GST-SBP tag (RBFOX2, Homo sapiens, UniProt O43251-10, residues 100-194)", "method": "RNA Bind-n-Seq", "molecule type": "RNA", "medium": "in vitro", "concentration": "365 nM", "notes": "natural RNA segment, single round, ends assumed", "baseline": "no-protein control", "reading": "higher = stronger binding", "constant ends, left off below": "GGGAGUUCUACAGUCCGACGAUC … UGGAAUUCUCGGGUGCCAA", "Target sequence (chain)": "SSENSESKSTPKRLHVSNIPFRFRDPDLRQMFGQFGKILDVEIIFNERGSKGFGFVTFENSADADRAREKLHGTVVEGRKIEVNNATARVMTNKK"}
{"Strand": "ACUCAGAAAGAGGUCUCCCCAUCCCCAUUCGGGGCUGACGAUGGGGGGCUGAUGGCUGCCCCUGCGUGGCCUGAGUCCUGGUCCCUCUGAGGCAGUUGACGGGGCAGUCA", "RBNS enrichment (R)": 0.312}
{"Strand": "GUAGUUAAGGGGCAAAAGUCCAUUCUCAUUUGGUCCAUUAGUUCCAGCAAUUGAAAUUUAUGUGAAUUAUUUUGAUUGUAGAAGCACUAUAAUAUGUGCUGAAACUAAAU", "RBNS enrichment (R)": 0.239}
{"Strand": "CGAUAUGUCUGUCCAUCUUUCUCCUUUCUUCCAGCACACACAGCUAAGAGAUAAGAAGGCUGCAAGGAUUGGGGAUAAGGAGUAUAUUUUCAAGCCAAGAACCAGUAGAA", "RBNS enrichment (R)": 0.488}
{"Strand": "AAUUAGCCGCUUCUUUUCCUCCCAACCUCUUAGCCGGGUAGAGAGGCAUUCCCAGGGGCUCCUGUCCAGCUGUCUCUGUCUGGGAAUGAUCUAACCUGGGUUGAGCCUCC", "RBNS enrichment (R)": 0.258}
{"Strand": "UUAGAACUACAUUCUUUACCCCUUGUUUUAAUUUGAACCCCACCAUAUGGAUUUUUUUCCUUAAGAAAAUCUCCUUUUAGGAGAUCAUGGUGUCACAGUGUUUGGUUCUU", "RBNS enrichment (R)": 0.301}
{"Strand": "UGGGGUUGAGGUUUGGGAAGCAGGCAGCAAGCGUUACCUUUGCAGAAGACUCGUGUCUUGCUGUAGAAUCCAGUUUGGUUUCAGCAGCUUGACUUAAUGCACUUACAGGC", "RBNS enrichment (R)": 0.742}
{"Strand": "CGGAUCCAGACACCUGACCUAGAAUGCCUGCCCGCUAUCCCUGUGGCAGGAAAUAUCCCCUCAUGUCCCAGGGAAUUGCAGAUGGGUCUUCUAUACCCUUCUACCUGCCC", "RBNS enrichment (R)": 0.318}
{"Strand": "UCCAAGUUUCUAAAGGCAAAAUUAUGAAUGGCCAUAAUGAAAAGUCCCUUACCUGCCUACCACUAGUGUCACGCAUAGUGUCACAGUGCUUCUGAUACACUCUCAUCUUG", "RBNS enrichment (R)": 0.548}
{"data": "Set 2", "target": "ABI1, truncated, D143A, DHFR fusion (Arabidopsis thaliana)", "method": "DHFR PCA, deep sequencing", "medium": "yeast", "notes": "methotrexate growth selection, single substitutions", "added": "(+)-ABA 0.032 µM", "baseline": "wild-type fitted maximum", "reading": "higher = stronger binding", "parent": "PYL1, truncated, DHFR fusion (Arabidopsis thaliana); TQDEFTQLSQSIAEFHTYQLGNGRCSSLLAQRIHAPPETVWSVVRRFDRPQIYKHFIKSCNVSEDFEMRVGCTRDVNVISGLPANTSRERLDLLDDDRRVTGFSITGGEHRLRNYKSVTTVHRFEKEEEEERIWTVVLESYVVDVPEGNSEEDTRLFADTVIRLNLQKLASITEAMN; partner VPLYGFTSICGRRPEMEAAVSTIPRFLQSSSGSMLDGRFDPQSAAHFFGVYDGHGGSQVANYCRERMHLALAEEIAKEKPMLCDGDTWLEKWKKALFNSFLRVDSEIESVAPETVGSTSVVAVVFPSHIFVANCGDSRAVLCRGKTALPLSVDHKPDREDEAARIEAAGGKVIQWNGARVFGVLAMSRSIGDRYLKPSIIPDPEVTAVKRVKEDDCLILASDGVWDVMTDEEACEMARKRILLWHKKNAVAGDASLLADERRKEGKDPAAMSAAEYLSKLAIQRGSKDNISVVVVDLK"}
{"Substitution": "R163K", "relative binding score [%]": 44.8}
{"Substitution": "T173A", "relative binding score [%]": 25.1}
{"Substitution": "G81H", "relative binding score [%]": -1.04}
{"Substitution": "F5Q", "relative binding score [%]": 7.6}
{"Substitution": "P37D", "relative binding score [%]": 0.952}
{"Substitution": "E67H", "relative binding score [%]": 9.73}
{"Substitution": "N77H", "relative binding score [%]": 56.6}
{"Substitution": "A13C", "relative binding score [%]": 1.39}
{"Substitution": "A30R", "relative binding score [%]": 4.89}
{"Substitution": "I33C", "relative binding score [%]": 1.58}
{"Substitution": "T86M", "relative binding score [%]": 19.5}
{"Substitution": "A84W", "relative binding score [%]": 102}
{"Substitution": "E152W", "relative binding score [%]": 4.88}
{"Substitution": "G23Q", "relative binding score [%]": 8.59}
{"data": "Set 3", "target": "Interferon regulatory factor 7, full length, phosphomimetic (IRF7, Homo sapiens, UniProt Q92985, residues 1-503, S101K/S471D/S472D/S475D/S476D/S477D/S483D/S484D/S487D)", "method": "protein-binding microarray", "molecule type": "double-stranded DNA, one strand shown", "medium": "in vitro", "concentration": "250 nM", "notes": "60-bp whole probe", "added": "salmon DNA 0.4 mg/ml", "baseline": "random background probes", "reading": "higher = stronger binding", "constant ends, left off below": "GCCTAGCAC … GTCTTGATTCGCTTGACGCTGCTG", "Target sequence (chain)": "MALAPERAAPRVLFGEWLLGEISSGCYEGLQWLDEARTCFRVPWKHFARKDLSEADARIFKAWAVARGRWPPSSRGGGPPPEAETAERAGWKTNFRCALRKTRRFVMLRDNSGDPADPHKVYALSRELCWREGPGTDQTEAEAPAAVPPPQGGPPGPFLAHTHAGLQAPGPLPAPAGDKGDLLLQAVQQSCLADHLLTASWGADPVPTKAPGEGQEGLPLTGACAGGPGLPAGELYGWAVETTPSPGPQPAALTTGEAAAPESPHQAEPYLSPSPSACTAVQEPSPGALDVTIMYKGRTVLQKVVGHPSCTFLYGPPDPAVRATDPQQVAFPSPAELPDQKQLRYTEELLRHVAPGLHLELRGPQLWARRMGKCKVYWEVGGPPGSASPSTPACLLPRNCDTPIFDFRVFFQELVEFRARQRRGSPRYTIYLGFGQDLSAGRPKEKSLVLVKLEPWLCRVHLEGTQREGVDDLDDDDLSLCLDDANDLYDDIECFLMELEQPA"}
{"Strand": "TTAGAACTGAGTTTCAATTAGTGCTAG", "log fluorescence [z-score]": 0.552}
{"Strand": "TAAGATTTCGGGTATCGATTAGTGCTA", "log fluorescence [z-score]": 1.93}
{"Strand": "TTAGGTTTTGACTTTCGGTTAGTGCTA", "log fluorescence [z-score]": 2.84}
{"Strand": "GACGGTTTCGACGTTCGGGACGTGCTA", "log fluorescence [z-score]": 3.13}
{"Strand": "TTACAACTGGGGACTGGATTAGTGCTA", "log fluorescence [z-score]": 0.044}
{"Strand": "GACGATTTCAGACTGCAGACGTGCTAG", "log fluorescence [z-score]": 0.237}
{"Strand": "TCATTTTTTACTTCGGGACTGTGCTAG", "log fluorescence [z-score]": 0.907}
{"Strand": "TTAGGTTTCAGACTGGATTAGTGCTAG", "log fluorescence [z-score]": 0.545}
{"Strand": "GACGGTTTCGGTCTGGGGACGTGCTAG", "log fluorescence [z-score]": 8.49}
{"Strand": "GACGGTTTCCTACCGCTGACGTGCTAG", "log fluorescence [z-score]": 1.22}
{"Strand": "CACCCCGCCCCTCCTTGGCCGTGCTAG", "log fluorescence [z-score]": -0.321}
{"Strand": "TTAGATTGCAGTCTCGATTAGTGCTAG", "log fluorescence [z-score]": 1.17}
{"Strand": "AGTTTTCTCATTCGTCATTTCGTGCTA", "log fluorescence [z-score]": 2.87}
{"Strand": "TTAGGACTAGACACTGGGTTAGTGCTA", "log fluorescence [z-score]": -0.0329}
{"Strand": "TTAGATATCCTTCTCCTTTAGTGCTAG", "log fluorescence [z-score]": 0.443}
{"Strand": "GACGATATCGGGTTTTGAGACGTGCTA", "log fluorescence [z-score]": -0.264}
{"Strand": "GACGGTATCGAACTGGGGACGTGCTAG", "log fluorescence [z-score]": 0.333}
{"data": "Set 4", "target": "Sal-like protein 4, full length isoform A (SALL4, Homo sapiens, UniProt Q9UJQ4, residues 1-1053)", "method": "universal PBM", "molecule type": "double-stranded DNA, one strand shown", "medium": "in vitro", "concentration": "600 nM", "notes": "8-mer, flanks averaged, mean of replicates", "reading": "higher = stronger binding", "sequence of UniProt Q9UJQ4 (whole entry, looked up)": "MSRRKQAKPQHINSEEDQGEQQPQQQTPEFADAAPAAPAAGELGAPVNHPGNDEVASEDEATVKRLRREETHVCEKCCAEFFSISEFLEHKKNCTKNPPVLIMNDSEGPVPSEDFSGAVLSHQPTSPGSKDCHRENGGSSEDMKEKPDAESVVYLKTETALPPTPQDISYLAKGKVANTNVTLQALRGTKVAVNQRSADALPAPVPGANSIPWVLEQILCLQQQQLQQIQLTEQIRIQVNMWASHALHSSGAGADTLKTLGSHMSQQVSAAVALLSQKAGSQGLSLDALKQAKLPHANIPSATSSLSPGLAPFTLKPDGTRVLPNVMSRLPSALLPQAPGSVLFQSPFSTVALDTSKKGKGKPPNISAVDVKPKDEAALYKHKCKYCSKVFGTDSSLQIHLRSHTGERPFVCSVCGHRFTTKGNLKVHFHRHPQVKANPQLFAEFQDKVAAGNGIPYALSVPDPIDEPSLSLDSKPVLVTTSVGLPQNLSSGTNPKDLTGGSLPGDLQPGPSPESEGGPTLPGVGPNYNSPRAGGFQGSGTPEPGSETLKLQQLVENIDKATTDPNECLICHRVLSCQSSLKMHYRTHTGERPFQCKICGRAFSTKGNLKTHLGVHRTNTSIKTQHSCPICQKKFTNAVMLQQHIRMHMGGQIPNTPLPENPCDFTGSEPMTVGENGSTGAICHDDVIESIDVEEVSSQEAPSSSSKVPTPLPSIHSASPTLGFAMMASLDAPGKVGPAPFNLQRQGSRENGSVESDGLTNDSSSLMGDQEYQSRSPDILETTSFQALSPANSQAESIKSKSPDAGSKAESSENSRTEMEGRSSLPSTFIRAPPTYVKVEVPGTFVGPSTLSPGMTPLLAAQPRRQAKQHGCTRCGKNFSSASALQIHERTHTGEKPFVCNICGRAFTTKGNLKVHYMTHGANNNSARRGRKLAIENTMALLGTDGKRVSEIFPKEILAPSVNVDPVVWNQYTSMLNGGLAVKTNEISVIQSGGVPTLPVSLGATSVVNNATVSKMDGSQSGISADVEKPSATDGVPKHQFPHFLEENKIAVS"}
{"Strand": "ACACACTA", "E-score": 0.0686}
{"Strand": "CGTCCAAG", "E-score": -0.251}
{"Strand": "AAGGATGA", "E-score": 0.21}
{"Strand": "CAAAGCCC", "E-score": -0.25}
{"Strand": "AGCCTTAG", "E-score": -0.0807}
{"Strand": "CAGTTTGA", "E-score": 0.00751}
{"Strand": "CATCGGTC", "E-score": -0.127}
{"Strand": "AGAGGAGA", "E-score": -0.08}
{"Strand": "CCCCACAG", "E-score": -0.286}
{"Strand": "AAGGTACA", "E-score": 0.103}
{"Strand": "CACTTCAC", "E-score": 0.012}
{"Strand": "AGACTCGG", "E-score": -0.31}
{"Strand": "GAGAGAAA", "E-score": 0.0518}
{"Strand": "ATATAGCC", "E-score": 0.284}
{"Strand": "CGTTTATC", "E-score": 0.234}
{"Strand": "GCCCCCGC", "E-score": -0.357}
{"Strand": "CTACATTC", "E-score": 0.143}
{"Strand": "AGTCATTC", "E-score": 0.107}
{"Strand": "GGTGAGGA", "E-score": -0.0806}
{"Strand": "AAACCGTA", "E-score": 0.0803}
{"Strand": "CCGTTACA", "E-score": 0.0896}
{"Strand": "AGAGTAAA", "E-score": 0.139}
{"Strand": "ACTACACT", "E-score": 0.129}
{"Strand": "CACGTCTC", "E-score": -0.196}
{"data": "Set 5", "target": "Histone acetyltransferase KAT6A, winged helix 1, GST fusion (KAT6A, Homo sapiens, UniProt Q92794, residues 1-85)", "method": "protein binding microarray", "molecule type": "double-stranded DNA, one strand shown", "medium": "in vitro", "concentration": "not given", "notes": "8-mer, flanks averaged, mean of 2 arrays, mostly near background", "baseline": "not given", "reading": "higher = stronger binding", "Target sequence (chain)": "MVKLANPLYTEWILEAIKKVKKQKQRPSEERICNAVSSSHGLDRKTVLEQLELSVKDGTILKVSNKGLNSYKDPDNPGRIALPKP"}
{"Strand": "AATGTCTA", "E-score": -0.103}
{"Strand": "CGCGGAAC", "E-score": 0.364}
{"Strand": "AGGCTACC", "E-score": -0.0485}
{"Strand": "TAAAGGAA", "E-score": -0.175}
{"Strand": "ATATGCGC", "E-score": 0.265}
{"Strand": "AGGTTGAA", "E-score": -0.0124}
{"Strand": "ACGCCCCC", "E-score": 0.15}
{"Strand": "ACGAACGG", "E-score": 0.224}
{"Strand": "ACCCCAAC", "E-score": -0.255}
{"Strand": "GACCTCTC", "E-score": -0.0831}
{"Strand": "CCATTTTC", "E-score": -0.158}
{"Strand": "AGTACCAC", "E-score": -0.18}
{"Strand": "CACAAGAA", "E-score": -0.142}
{"Strand": "GATTAAAC", "E-score": 0.0411}
{"Strand": "GGCTAACA", "E-score": 0.126}
{"Strand": "GACGTTCA", "E-score": 0.0355}
{"Strand": "AATGGCAG", "E-score": -0.133}
{"Strand": "CGGGTCAC", "E-score": 0.281}
{"Strand": "TACGTTCA", "E-score": -0.152}
{"Strand": "TATTGGCA", "E-score": -0.292}
{"Strand": "CGCTTCCG", "E-score": 0.375}
{"Strand": "TCTATTAA", "E-score": -0.0465}
{"Strand": "CAGCCTCG", "E-score": -0.143}
{"Strand": "CACTATAA", "E-score": -0.128}
{"Strand": "ACGGCCGC", "E-score": 0.467}
{"data": "Single results of other studies"}
{"Substance": "PhoQ, residues 284 288 289 292 302 303 NLMGRA", "target": "PhoP, residues 12 14 15 18 19 NYFTV (Escherichia coli, UniProt P23836)", "test": "Sort-seq, measured: YFP reporter", "test system": "E. coli", "setting": "PhoQ-PhoP variant library, added: 10 µM Mg2+", "scale": "baseline: high Mg2+ state, higher = stronger signaling", "measurement": "fold induction", "value": 13.6}
{"note": "Some of these lines once more (set 4):"}
{"Strand": "ACACACTA", "E-score": 0.0686}
{"Strand": "CGTCCAAG", "E-score": -0.251}
{"Strand": "AAGGATGA", "E-score": 0.21}
{"Strand": "CAAAGCCC", "E-score": -0.25}
{"Strand": "AGCCTTAG", "E-score": -0.0807}
{"Strand": "CAGTTTGA", "E-score": 0.00751}
{"Strand": "CATCGGTC", "E-score": -0.127}
{"Strand": "AGAGGAGA", "E-score": -0.08}
{"Strand": "CCCCACAG", "E-score": -0.286}
{"Strand": "AAGGTACA", "E-score": 0.103}
{"Strand": "CACTTCAC", "E-score": 0.012}
{"Strand": "AGACTCGG", "E-score": -0.31}
